Experimental data of several laboratories.
Every numbered part comes from another study and shows a few of its results, in no order. Changes are numbered by the printed parent chain.

Sample 1 — method: RNA Bind-n-Seq; molecule type: RNA; matrix: in vitro; concentration: 365 nM; relative to: no-protein control; reading: higher = stronger binding
Target: RNA binding protein fox-1 homolog 2, RRM domain, GST-SBP tag (RBFOX2, Homo sapiens, UniProt O43251-10, residues 100-194)
Notes: natural RNA segment, single round, ends assumed
All sequences stand within: GGGAGUUCUACAGUCCGACGAUC … UGGAAUUCUCGGGUGCCAA
Target sequence (chain): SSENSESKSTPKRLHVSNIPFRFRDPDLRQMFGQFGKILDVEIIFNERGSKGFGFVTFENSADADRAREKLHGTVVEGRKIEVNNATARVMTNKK
Oligonucleotide	RBNS enrichment (R)
CCAGCCUCCACCCGCACAAAGGGGCUCUAAAUCCCAGGCCUCAUCUCCCCACUGGCAGUCCGUGCUCAGGCUGGCUCUUAGGCCUGCGGCUUUGAUGGAGGAGGUAUUGU	1.12
GAGACCUAUAAAUCCAACCAGUUACCCUGCAAGUCAGCCCCAUCUGCUGUUCCUUGGUCUCUAAUCACCUGAGCUGGGUAAAGGGGAUUCUGGGAGUUGAGAGCUCUGCC	0.493
CGCCUGGAGCGCAUCGAGUCCACUGAAAUCUGAUUCUCUACGUGCACAACCUUCUGACACGUGCCCUGUCUGAAGGUCGGAGUCACCAAUGUCCCUUCCAUUCAUCUCCC	0.514
CCAAGUGAUAACACUGCUUUCUUAUACACUGGGAUCAUUGUCACUUGAAAAAAAAAACAUUAUUGUGGUUGUGGGAGAAAGCUCUAGAUCUGUGCCAUAAUAGAUAUGCA	3.78
AGUAGCCAAAUCUUUUUCUAAUAAACUCAAUGUUCAGCUCCUCUGUGUUUAAGUUCUCGUAUCCUUGGUGGACACGGACACUAAGAAUCAACUAUGUAGUUGAUUUUUUU	0.476
CUACUUACGCGAACACAGCAGGUUGGUGUGGCUGGCUAACUAGGACCUCUCGAAAGUCUCUGUGGGGGCAUGAGGGAGAAAAGGCCAUUGGGAGAAUUACUGCCUUUACU	0.344
UUUAUGGAAAAACAACGGAAGUCCCAUUAUCCUCAACCUUGCUCAAGGCGGCAACCAGGAGGAAGUGGGGUAAAAGGGGCAGCUAUGGGCAUGAAACCAACCGAGUUGAU	2.27
UGUCCAGUGCUGGGUGUUUGGGUGCUUCUGUACCAGCCGUCCCCAAGCAGGGCUAAGGCACCUUGAACUAGCCAGAUGCAAACAUAGAUUCACUGUGCUUUCCUUUCAAA	0.311
CCAGUUGUUAGGCUGCCCCCCUGAGCCUCACCUUGUUCACCUUGGUUUUCCGAUGAUGAGCUUCCCUAGACAGAUCAUGCUCCACGUCCACGGUGUUCUCAGCACCGUGA	0.306
UCCACCAUGGGGGACGGCCCAGCGUGGGUGGGGGUGCCAGAGGGUCCCGAGUGGGGGCCGUGCCUUUGCCCAGACCCUGCACUUUCAACCAGGCCAGUCCGGCUCUGGGG	0.252
CUCCUUUCCCCCCCGACCCUAUUCAGGUUUUAAGUCAAAAAUGUCGAUAUGUCAUUAUGCACUUUACAGAUGAGGGGAGGGGCCGCAGUGCGCAGAACCCACCCCACCCC	0.305
AAAAAGACAUUCCAGAGCAUAGCCUUUUGGUAACUUUCUAGGUAAUCUUGCAAUCUCUCCAUACUGGCUCCAUGUUGAAAUUGCUUUUUCCCUCAGGACCCUGGGUAAGA	0.469

Sample 2 — method: protein-binding microarray; molecule type: double-stranded DNA, one strand shown; matrix: in vitro; concentration: not given; reading: higher = stronger binding
Target: Runt-related transcription factor 1 (RUNX1, Homo sapiens, UniProt Q01196, residues 1-453, full length assumed)
Sequence of UniProt Q01196 (whole entry, looked up): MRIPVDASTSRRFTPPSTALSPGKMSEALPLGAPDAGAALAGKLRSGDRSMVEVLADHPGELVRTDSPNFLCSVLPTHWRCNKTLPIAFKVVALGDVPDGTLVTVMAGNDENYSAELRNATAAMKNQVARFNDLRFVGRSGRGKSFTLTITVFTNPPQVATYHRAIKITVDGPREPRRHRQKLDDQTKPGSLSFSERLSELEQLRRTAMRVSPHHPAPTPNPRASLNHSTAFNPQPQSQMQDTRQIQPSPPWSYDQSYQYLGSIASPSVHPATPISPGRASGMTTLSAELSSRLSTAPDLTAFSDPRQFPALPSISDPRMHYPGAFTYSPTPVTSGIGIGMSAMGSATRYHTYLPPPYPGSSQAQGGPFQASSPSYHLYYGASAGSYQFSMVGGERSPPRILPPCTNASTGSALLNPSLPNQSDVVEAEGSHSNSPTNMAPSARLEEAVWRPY
Notes: k-mer, scored over probes, only values ≥0.25
Oligonucleotide	E-score
CCGCAAC	0.464
CACAACC	0.271
CCACACC	0.263
CAACCGC	0.408
CGACCGC	0.342
TGGTAAA	0.301
TAAACCA	0.302
AACCACG	0.332
AGCCACA	0.252
ACCACAC	0.39
ATTGCGG	0.349
ACCGCTA	0.26
ACCACAA	0.483

Sample 3 — method: protein binding microarray; molecule type: double-stranded DNA, one strand shown; matrix: in vitro; concentration: not given; relative to: not given; reading: higher = stronger binding
Target: Histone acetyltransferase KAT6A, winged helix 2, GST fusion (KAT6A, Homo sapiens, UniProt Q92794, residues 85-181)
Notes: 8-mer, flanks averaged, mean of 2 arrays, mostly near background
Target sequence (chain): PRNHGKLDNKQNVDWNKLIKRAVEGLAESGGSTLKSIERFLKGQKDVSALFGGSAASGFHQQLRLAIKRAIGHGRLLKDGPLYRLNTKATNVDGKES
Oligonucleotide	E-score
ACAAATAC	-0.0276
ACGCGACA	0.0925
GGCGAAGA	0.102
CTATGACA	-0.183
GCCTGCTA	0.0899
ATAGTATG	0.0306
AACGTCGC	0.0127
AAGTGCCG	0.015
GGGATCAC	-0.127
ACAGATAT	-0.0817
CTTTCCGC	0.136
CCCTCGTA	-0.0749
AGTAAACA	-0.0242
AGCAACTC	-0.0153
TGACTGCA	-0.196
AAGGGGCG	-0.0323
AGTTGCAG	-0.0105
ATAATTCG	-0.0549
CTGCGCGA	0.0956
GCAGCCCA	-0.00805
CAACATAA	0.00562
GAGTCCCC	-0.196
GCTGAGCC	-0.089
CTCCGAAC	0.0814
CATATCTA	0.0815

Sample 4 — method: universal PBM; molecule type: double-stranded DNA, one strand shown; matrix: in vitro; concentration: not given; reading: higher = stronger binding
Target: Sal-like protein 4, full length isoform B (SALL4, Homo sapiens, UniProt Q9UJQ4-2, residues 1-616)
Notes: 8-mer, flanks averaged, mean of replicates
Oligonucleotide	E-score
CGTCCGCA	-0.221
ACTGATAA	0.3
CCACAGAC	-0.12
CAAGTCTA	0.106
GCCCAAGA	-0.206
GAACTCGA	-0.142
TATCCGAA	0.0835
AGCTGCAT	0.0321
CTTGTATA	0.248
ACTTCCCA	0.014
CAGCGGCA	-0.262
ACCTCCCT	-0.168
ATCAAACA	0.193
ATCGCCGC	-0.189
CGCGGACG	-0.235
CATTTTAC	0.333
AGGTGATC	-0.00302
ATGCAATG	0.00403
ATAGACTG	0.082
CAGCACTG	-0.231
ATTAAGCA	0.196
CCGCAAGC	-0.3
AGCGCGCT	-0.274
GAGTCCGA	0.0257
ACCGCGCG	-0.332

Sample 5 — method: DHFR PCA, deep sequencing; matrix: yeast; together with: (+)-ABA 200 µM; relative to: wild-type fitted maximum; reading: higher = stronger binding
Target: ABI1, truncated, D143A, DHFR fusion (Arabidopsis thaliana)
Notes: methotrexate growth selection, single substitutions
Starting sequence: PYL1, truncated, DHFR fusion (Arabidopsis thaliana); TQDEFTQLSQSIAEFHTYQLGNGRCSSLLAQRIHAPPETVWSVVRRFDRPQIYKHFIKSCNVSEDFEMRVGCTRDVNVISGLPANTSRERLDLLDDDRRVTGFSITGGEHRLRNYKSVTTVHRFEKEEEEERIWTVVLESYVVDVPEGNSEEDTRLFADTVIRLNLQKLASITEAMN
Substitution	relative binding score
E174V	88.6%
R98D	81.1%
E174P	65%
T160W	76.1%
E151R	92.2%
N61F	101%
Y141H	16.1%
S104K	59.3%
H110N	104%
V76L	98.1%
F47H	-20%
R98S	88.5%
R98Q	96.1%
R132P	114%
R111Q	70.8%
K126F	98.2%
T154F	-15.6%
R45F	-1.75%
E38G	92.3%

Sample 6 — target: CCNF, cyclin fold, Cln2 fusion (human); method: yeast growth competition, sequencing; matrix: yeast; notes: strong parent motif; relative to: not given; reading: higher = stronger binding
Starting sequence: DBF4B docking peptide (human); LGYLYLLLTQSLW
Substitution	normalised enrichment score
LGYLYLLLTQSAW [L12A]	1.84
LGYLYLLLTQALW [S11A]	1.94
LGYLYLLLAQSLW [T9A]	2.55
LGALYLLLTQSLW [Y3A]	1.22
LGYLYLLATQSLW [L8A]	2.11
LGYAYLLLTQSLW [L4A]	2.14
LGYLYLLLTASLW [Q10A]	2.99

Sample 7 — target: XBP1, bZIP domain (human); method: DHFR protein complementation; matrix: yeast; relative to: wild-type JUN-FOS pair; reading: higher = stronger binding
Notes: single substitutions, most at no-binding floor
Starting sequence: JUN, bZIP domain (human); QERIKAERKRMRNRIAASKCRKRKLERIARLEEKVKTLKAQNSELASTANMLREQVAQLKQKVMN; partner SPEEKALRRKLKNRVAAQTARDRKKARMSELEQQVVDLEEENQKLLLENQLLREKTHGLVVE
Substitution	binding fitness [natural log]
V35M	-1.43
I28L	-0.702
L59H	-0.553
K36Y	-1.29
R53Q	-1.2
K34L	-1.05
E33D	-0.92
R53H	-1.49
K39F	-1.38
Q55L	-0.554
K39A	-1.28
I28K	-1.26
R30H	-0.389
L45V	-1.56
S43A	-0.233
L38R	-1.37
E54P	-1.46
K39E	-1.18
L52V	-1.36
A40M	-0.764
S47G	-0.981
R30I	-0.498
E33L	-1.01
T37V	-0.655

Some of these lines once more (sample 4):
Oligonucleotide	E-score
CTTGTATA	0.248
ATAGACTG	0.082
ACTGATAA	0.3
AGGTGATC	-0.00302
ACCGCGCG	-0.332
ATCGCCGC	-0.189
CCGCAAGC	-0.3
ATTAAGCA	0.196
ACTTCCCA	0.014
GAGTCCGA	0.0257
TATCCGAA	0.0835
ACCTCCCT	-0.168
CAGCACTG	-0.231
ATGCAATG	0.00403
CATTTTAC	0.333
GAACTCGA	-0.142
CGCGGACG	-0.235
